Published values from different studies.
Lines come from different studies, so protocols differ.
UCHL1: Ubiquitin carboxyl-terminal hydrolase isozyme L1 (UCHL1, Homo sapiens, UniProt P09936)
Chain of UniProt P09936 (whole entry, looked up): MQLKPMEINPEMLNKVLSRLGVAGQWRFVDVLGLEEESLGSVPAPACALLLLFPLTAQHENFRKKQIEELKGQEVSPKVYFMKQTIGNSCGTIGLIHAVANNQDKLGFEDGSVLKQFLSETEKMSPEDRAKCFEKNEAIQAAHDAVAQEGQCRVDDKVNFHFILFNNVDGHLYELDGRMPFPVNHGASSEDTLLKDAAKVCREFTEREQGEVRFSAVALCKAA
Chain of UniProt Q07794 (whole entry, looked up): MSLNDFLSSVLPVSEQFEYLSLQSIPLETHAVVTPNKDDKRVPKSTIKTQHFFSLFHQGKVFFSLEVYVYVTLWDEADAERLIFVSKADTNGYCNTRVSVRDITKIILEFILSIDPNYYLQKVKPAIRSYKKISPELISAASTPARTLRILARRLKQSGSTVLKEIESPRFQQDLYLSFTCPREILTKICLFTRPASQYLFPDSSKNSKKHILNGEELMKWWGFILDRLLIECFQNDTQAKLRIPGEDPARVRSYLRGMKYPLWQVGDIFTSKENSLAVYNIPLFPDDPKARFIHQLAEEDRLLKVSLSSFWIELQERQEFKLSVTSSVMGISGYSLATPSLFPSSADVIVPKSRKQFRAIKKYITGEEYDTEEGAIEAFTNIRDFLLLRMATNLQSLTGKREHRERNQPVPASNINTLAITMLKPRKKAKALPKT

SMILES	target or system	test	system	conditions	scale	quantity	value
O=C(O)CNC(=O)Cc1ccccc1	–	–	ventricular cardiomyocytes, C57BL/6 mouse	dose not given, 0.54 s	–	sarcomere length	1.62 µm
CNC(=O)c1cc(Oc2ccc(NC(=O)Nc3ccc(Cl)c(C(F)(F)F)c3)cc2)ccn1	CaMKII (rat)	kinase activity, inhibitor	–	0.3 µM	–	inhibition	4%
O=S1(=O)CC(Sc2ccc(Cl)cc2)c2ccccc21 (stereo not drawn)	Histone acetyltransferase RTT109, with Vps75 (Saccharomyces cerevisiae, UniProt Q07794)	enzyme activity, inhibitor, HTS, CPM-based, dose response	–	–	–	IC50	> 125 µM
Cn1cc(-c2ccc(-c3cncc(Cl)c3N3CCC4(CCNC4=O)CC3)cc2)cn1	COLO 205	microarray, item: CDKN2C	–	concentration not given, 6 h, gene set p18	reference: untreated cells	fold change in expression	-1.64
COc1cc(C#CC(=O)c2ccc(C(F)(F)F)cc2)ccc1O	Pseudomonas aeruginosa	static biofilm	PA14	10 µM, 24 h, static	reference: DMSO	biofilm formation	66%
C[n+]1cc2c3c(ccc2c2ccc4cc5c(cc4c21)OCO5)OCO3	Toxoplasma gondii	parasite growth, luciferase reporter	HFF host cells, tachyzoites	72 h	–	EC50	0.3 µM
CCCC(=O)C#Cc1ccc(O)c(OC)c1	Pseudomonas aeruginosa	static biofilm	PA14	10 µM, 24 h, static	reference: DMSO	biofilm formation	65%
CCc1ccc(Cc2cnc(NC(=O)CCl)s2)cc1	UCHL1	covalent, intact protein LC-MS	–	12.5 µM	–	labelling	46.9%
c1coc(-c2n[nH]cc2-c2ccnc3ccccc23)c1	CMK1 (Candida albicans)	kinase binding, MIB/MS competition	Candida albicans lysate	1 µM	reference: DMSO	log2 fold change	-0.25
CC(=O)OC[C@H]1O[C@@H]([S-])[C@H](OC(C)=O)[C@@H](OC(C)=O)[C@@H]1OC(C)=O.CCP(CC)CC.[Au+]	Toxoplasma gondii	parasite growth	HFF, bradyzoite, alkaline-induced	–	–	EC90	1.69 µM
CCC(C)C(=O)C#Cc1ccc(O)c(OC)c1 (stereo not drawn)	Pseudomonas aeruginosa	static biofilm	PA14	10 µM, 24 h, static	reference: DMSO	biofilm formation	80%
OC(CCN1CCCCC1)(c1ccccc1)C1CC2C=CC1C2 (stereo not drawn)	–	resting-state EEG	healthy elderly humans	oral, 4 mg, eyes open, LS mean	–	power, delta EEG, O2-Pz	8.6 µV²
O=C(C#Cc1ccc(F)c(F)c1)c1ccccc1Cl	Pseudomonas aeruginosa	RT-qPCR, item: rhlA	biofilm cells	10 µM, 24 h	reference: untreated	mRNA level	16%
CCn1cc(-c2cc(Cn3ccoc3=N)cc3c2CCN([C@@H](C)c2cc(OC)ccn2)C3=O)c(C(F)(F)F)n1	U266B1	cell growth	–	120 h	–	EC50	> 30 µM
Oc1ccc2c(c1)OC[C@]1(O)Cc3cc(O)c(O)cc3[C@H]21	Toxoplasma gondii	parasite growth	HFF, bradyzoite, alkaline-induced	–	–	EC90	0.068 µM
O=C(C#Cc1ccc(F)c(F)c1)c1ccc(Cl)cc1	Pseudomonas aeruginosa	static biofilm	PA14	10 µM, 24 h	reference: DMSO	biofilm formation	62%
NS(=O)(=O)c1ccc(CNc2nc(Nc3cccc(CN4CCOCC4)c3)ncc2C2CC2)cc1	403 human wild-type kinases	scanMAX	–	–	PoC below 10	number of kinases bound	3
CCC1CCc2c(sc(N3C(=O)C4C5CCC(C5)C4C3=O)c2C(N)=O)C1 (stereo not drawn)	UCHL1	covalent, intact protein LC-MS	–	12.5 µM	–	labelling	23.5%
COc1cc(C#CC(O)c2ccccc2)ccc1O (stereo not drawn)	Pseudomonas aeruginosa	static biofilm	PA14	10 µM, 24 h, static	reference: DMSO	biofilm formation	51%
CC(C)(C)c1ccc(S(=O)(=O)/C=C/C#N)cc1	Toxoplasma gondii	parasite growth, luciferase reporter	HFF, tachyzoite	72 h	–	EC50	15 µM

SMILES	target or system	test	system	conditions	scale	quantity	value
Nc1cccc2c1C(=O)N(C1CCC(=O)NC1=O)C2=O (stereo not drawn)	bone marrow CD138+ myeloma cells	XTT	–	2 µM, mean of three patients	–	viability	8%
COc1cc(C#CC(=O)C(C)C)ccc1O	Pseudomonas aeruginosa	static biofilm	PA14	10 µM, 24 h, static	reference: DMSO	biofilm formation	76%
C[C@H](Oc1ccc(Br)cc1-c1ccon1)C(=O)O	–	muscle velocity recovery cycles	human, tibialis anterior muscle	400 mg once daily, multiple doses, multiple ascending dose	reference: placebo	CMAP amplitude	-0.082 mV
C[C@H]1C[C@H]2CSC(N)=N[C@@]2(c2nc(NC(=O)c3ccc(OC(F)F)cn3)cs2)CO1	–	item: total Aβ	healthy adults, plasma	125 mg once daily, day 14	reference: placebo	percent change from baseline	-59.1%
COc1cc(C#CC(=O)C2CCCCC2)ccc1O	Pseudomonas aeruginosa	optical density	–	100 µM	–	growth inhibition	20%
O=C(c1ccc(Nc2nccc(-c3cc4ccccc4s3)n2)cc1)N1CCC(N2CCCC2)CC1	Toxoplasma gondii	parasite growth	HFF, bradyzoite, alkaline-induced	–	–	EC90	12.2 µM
O=C(/C=C/C=C/C=C/C1CCCCC1)NC1=C[C@@](O)(/C=C/C=C/C=C/C(=O)NC2=C(O)CCC2=O)[C@@H]2O[C@@H]2C1=O	SW1573	cell growth, CellTiter-Glo	–	78 h	–	GI50	10 µM
Cc1ccc(S(=O)(=O)/C=C/C#N)cc1	Toxoplasma gondii	parasite growth, luciferase reporter	HFF, tachyzoite	72 h	–	EC50	13.8 µM
N#Cc1ccc2c(-c3ccncc3)c(-c3ccc(F)cc3)nn2c1	–	kinase binding, competitor, MIB/MS competition, item: PKH2	Candida albicans cell lysate	1 µM	reference: DMSO	log2 fold change	0.144
Oc1ccccc1-c1n[nH]cc1-c1ccnc2ccccc12	BUB1 (Candida albicans)	kinase binding, MIB/MS competition	Candida albicans lysate	1 µM	reference: DMSO	log2 fold change	0.07
Cn1cc(Nc2nccc(-c3ccc4c(c3)CN(C3COC3)CC[C@H]4NC(=O)c3cn(C(C)(C)C)nn3)n2)cn1	human B cells	–	–	100 nM, 64 h, stimulation-upregulated genes, together with: CD40L, anti-IgM, IL-21	–	number of unchanged genes	1580
O=C(c1ccc(OCCN2CCCCC2)cc1)c1c(-c2ccc(O)cc2)sc2cc(O)ccc12	Toxoplasma gondii	parasite growth	HFF, bradyzoite, alkaline-induced	–	–	EC50	7.38 µM
CCn1cc(-c2cc(Cn3ccnc3)cc3c2CCN([C@H](c2cc(OC)ccn2)C2CC2)C3=O)c(C(F)(F)F)n1	KP2	cell growth	–	120 h	–	EC50	> 30 µM
O=C(Nc1ccncc1)c1cc([N+](=O)[O-])ccc1Cl	Toxoplasma gondii	bradyzoite growth	–	pH 8.2, alkaline-induced bradyzoites	–	EC50	0.64 µM
COc1cnc2cccc(N3CCc4c(cc(Cn5ccnc5C)cc4-c4cn(C)nc4C(F)(F)F)C3=O)c2c1	SNU1066	cell growth	–	120 h	–	EC50	> 30 µM
CC(C)Cc1ccc(CN2CCCC(NC(=O)c3nn(C)c(=O)c4ccccc34)C2)cc1 (stereo not drawn)	Trypanosoma cruzi	reporter translation, Renilla luciferase mRNA translation	cell-free extract	40 µM	reference: DMSO	inhibition	5.1%
NC(=O)c1cnc2[nH]ccc2c1N[C@@H]1[C@@H]2CC3C[C@H]1C[C@@](O)(C3)C2	–	flow cytometry	Japanese healthy men, blood	oral, 30 mg twice daily, 72 h after day 7 dose	reference: baseline	regulatory T-cell change	-0.28%
CC(C)NCC(O)c1ccc(O)c(O)c1 (stereo not drawn)	–	–	ventricular cardiomyocytes, C57BL/6 mouse	dose not given, 0.392 s	–	sarcomere length	1.72 µm
C(=N\Nc1nc(Nc2ccccc2)nc(N2CCOCC2)n1)/c1c[nH]c2ccccc12	Trypanosoma cruzi	reporter translation, Renilla luciferase mRNA translation	cell-free extract	40 µM	reference: DMSO	inhibition	4.8%

For quick reference, copied from above:
SMILES	target or system	test	system	conditions	scale	quantity	value
Oc1ccc2c(c1)OC[C@]1(O)Cc3cc(O)c(O)cc3[C@H]21	Toxoplasma gondii	parasite growth	HFF, bradyzoite, alkaline-induced	–	–	EC90	0.068 µM
O=C(C#Cc1ccc(F)c(F)c1)c1ccc(Cl)cc1	Pseudomonas aeruginosa	static biofilm	PA14	10 µM, 24 h	reference: DMSO	biofilm formation	62%
NS(=O)(=O)c1ccc(CNc2nc(Nc3cccc(CN4CCOCC4)c3)ncc2C2CC2)cc1	403 human wild-type kinases	scanMAX	–	–	PoC below 10	number of kinases bound	3
CCC1CCc2c(sc(N3C(=O)C4C5CCC(C5)C4C3=O)c2C(N)=O)C1 (stereo not drawn)	UCHL1	covalent, intact protein LC-MS	–	12.5 µM	–	labelling	23.5%
COc1cc(C#CC(O)c2ccccc2)ccc1O (stereo not drawn)	Pseudomonas aeruginosa	static biofilm	PA14	10 µM, 24 h, static	reference: DMSO	biofilm formation	51%
CC(C)(C)c1ccc(S(=O)(=O)/C=C/C#N)cc1	Toxoplasma gondii	parasite growth, luciferase reporter	HFF, tachyzoite	72 h	–	EC50	15 µM
